Assay results from different studies.
Parts stem from different laboratories: compare values within a part only. Values joined by “and” are separate records of one study, mostly repeats; a detail may differ.
UniProt Q9HBY8, sequence (whole entry, looked up): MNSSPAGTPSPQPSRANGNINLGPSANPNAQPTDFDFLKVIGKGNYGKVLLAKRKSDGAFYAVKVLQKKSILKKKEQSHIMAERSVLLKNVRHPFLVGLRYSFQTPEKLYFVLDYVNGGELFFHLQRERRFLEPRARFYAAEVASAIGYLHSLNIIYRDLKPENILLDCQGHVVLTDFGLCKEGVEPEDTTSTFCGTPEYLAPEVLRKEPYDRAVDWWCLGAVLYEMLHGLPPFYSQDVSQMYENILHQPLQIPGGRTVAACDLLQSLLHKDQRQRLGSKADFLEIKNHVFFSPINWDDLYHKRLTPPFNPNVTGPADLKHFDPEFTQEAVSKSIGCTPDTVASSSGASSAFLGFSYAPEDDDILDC
UniProt Q13557, sequence (whole entry, looked up): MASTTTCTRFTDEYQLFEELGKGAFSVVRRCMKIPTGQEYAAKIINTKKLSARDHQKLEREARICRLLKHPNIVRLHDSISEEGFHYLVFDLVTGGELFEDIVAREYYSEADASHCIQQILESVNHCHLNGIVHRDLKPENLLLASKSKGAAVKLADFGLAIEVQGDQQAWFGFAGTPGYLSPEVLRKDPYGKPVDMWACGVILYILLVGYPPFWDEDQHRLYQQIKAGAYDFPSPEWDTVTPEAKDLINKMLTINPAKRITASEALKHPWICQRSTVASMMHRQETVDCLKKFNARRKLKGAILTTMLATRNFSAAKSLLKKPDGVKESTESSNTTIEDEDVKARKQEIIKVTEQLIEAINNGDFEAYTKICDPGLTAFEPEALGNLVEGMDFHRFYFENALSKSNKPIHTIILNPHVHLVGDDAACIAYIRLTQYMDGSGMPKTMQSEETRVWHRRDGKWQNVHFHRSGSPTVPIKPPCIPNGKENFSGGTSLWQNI
UniProt Q9UPZ9, sequence (whole entry, looked up): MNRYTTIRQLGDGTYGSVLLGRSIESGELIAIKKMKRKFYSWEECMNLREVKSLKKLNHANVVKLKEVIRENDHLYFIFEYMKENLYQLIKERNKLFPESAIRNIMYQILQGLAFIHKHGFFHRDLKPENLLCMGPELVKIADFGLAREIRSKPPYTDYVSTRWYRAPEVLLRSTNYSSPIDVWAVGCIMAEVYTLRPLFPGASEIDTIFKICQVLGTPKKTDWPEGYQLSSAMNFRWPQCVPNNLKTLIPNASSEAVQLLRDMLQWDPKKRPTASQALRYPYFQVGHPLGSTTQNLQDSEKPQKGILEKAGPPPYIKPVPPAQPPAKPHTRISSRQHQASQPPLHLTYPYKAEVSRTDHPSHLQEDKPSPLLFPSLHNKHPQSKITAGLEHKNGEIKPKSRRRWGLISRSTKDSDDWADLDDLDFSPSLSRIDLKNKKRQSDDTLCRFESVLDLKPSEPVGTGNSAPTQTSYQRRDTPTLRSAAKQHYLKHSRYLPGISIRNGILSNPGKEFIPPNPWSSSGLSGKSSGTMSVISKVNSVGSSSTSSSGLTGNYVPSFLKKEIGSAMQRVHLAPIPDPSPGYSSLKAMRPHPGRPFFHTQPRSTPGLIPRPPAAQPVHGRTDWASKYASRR
UniProt Q9HC98, sequence (whole entry, looked up): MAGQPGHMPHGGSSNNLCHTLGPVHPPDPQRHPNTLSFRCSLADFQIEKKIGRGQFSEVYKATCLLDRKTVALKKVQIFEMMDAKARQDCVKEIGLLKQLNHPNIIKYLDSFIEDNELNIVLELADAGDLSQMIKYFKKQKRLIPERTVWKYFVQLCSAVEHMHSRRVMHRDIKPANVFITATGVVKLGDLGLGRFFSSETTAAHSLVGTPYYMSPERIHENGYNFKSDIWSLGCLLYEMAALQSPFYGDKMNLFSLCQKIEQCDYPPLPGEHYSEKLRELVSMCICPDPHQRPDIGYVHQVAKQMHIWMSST

Study 1
SMILES: COc1cc(-c2cn(C3CCc4c(F)cccc4N(CC(F)(F)F)C3=O)nn2)ccc1-n1cnc(C)c1 (centres unmarked)
Technique: competition with immobilised ligand
Tested at: 1 µM
target	test	remaining binding [%]
Serine/threonine-protein kinase RIO3 (RIOK3, Homo sapiens, UniProt O14730)	cell-free assay	100
Mast/stem cell growth factor receptor Kit (KIT, Homo sapiens, UniProt P10721, D816H)	cell-free assay	67
Serine/threonine-protein kinase Sgk2 (SGK2, Homo sapiens, UniProt Q9HBY8)	cell-free assay	95
Interferon-induced, double-stranded RNA-activated protein kinase (EIF2AK2, Homo sapiens, UniProt P19525)	cell-free assay	100
Serine/threonine-protein kinase Nek6 (NEK6, Homo sapiens, UniProt Q9HC98)	cell-free assay	100
Discoidin domain-containing receptor 2 (DDR2, Homo sapiens, UniProt Q16832)	cell-free assay	100
Receptor-interacting serine/threonine-protein kinase 4 (RIPK4, Homo sapiens, UniProt P57078)	cell-free assay	56
Serine/threonine-protein kinase 32A (STK32A, Homo sapiens, UniProt Q8WU08)	cell-free assay	100
Cyclin-dependent kinase 2 (CDK2, Homo sapiens, UniProt P24941)	cell-free assay	100
cAMP-dependent protein kinase catalytic subunit PRKX (PRKX, Homo sapiens, UniProt P51817)	cell-free assay	100
Cyclin-G-associated kinase (GAK, Homo sapiens, UniProt O14976)	cell-free assay	88
Ephrin type-A receptor 1 (EPHA1, Homo sapiens, UniProt P21709)	cell-free assay	100
Calcium/calmodulin-dependent protein kinase type II subunit delta (CAMK2D, Homo sapiens, UniProt Q13557)	cell-free assay	100
Serine/threonine-protein kinase DCLK2 (DCLK2, Homo sapiens, UniProt Q8N568)	cell-free assay	100
Myosin-IIIb (MYO3B, Homo sapiens, UniProt Q8WXR4)	binding	100
Tyrosine-protein kinase ABL1, phosphorylated (ABL1, Homo sapiens, UniProt P00519, Y253F)	cell-free assay	100
Vascular endothelial growth factor receptor 2 (KDR, Homo sapiens, UniProt P35968)	cell-free assay	100
Serine/threonine-protein kinase ICK (CILK1, Homo sapiens, UniProt Q9UPZ9)	cell-free assay	65
ALK tyrosine kinase receptor (ALK, Homo sapiens, UniProt Q9UM73, C1156Y)	cell-free assay	100
Leukocyte tyrosine kinase receptor (LTK, Homo sapiens, UniProt P29376)	cell-free assay	100
Serine/threonine-protein kinase 38-like (STK38L, Homo sapiens, UniProt Q9Y2H1)	cell-free assay	78
Serine/threonine-protein kinase Nek4 (NEK4, Homo sapiens, UniProt P51957)	cell-free assay	100
Epidermal growth factor receptor (EGFR, Homo sapiens, UniProt P00533, L858R/T790M)	cell-free assay	82
Interleukin-1 receptor-associated kinase 3 (IRAK3, Homo sapiens, UniProt Q9Y616)	cell-free assay	100
Phosphatidylinositol 5-phosphate 4-kinase type-2 beta (PIP4K2B, Homo sapiens, UniProt P78356)	cell-free assay	73

Study 2
Target: DNA polymerase theta, ATPase domain (POLQ, Homo sapiens, UniProt O75417)
UniProt O75417, sequence (whole entry, unmodified, looked up): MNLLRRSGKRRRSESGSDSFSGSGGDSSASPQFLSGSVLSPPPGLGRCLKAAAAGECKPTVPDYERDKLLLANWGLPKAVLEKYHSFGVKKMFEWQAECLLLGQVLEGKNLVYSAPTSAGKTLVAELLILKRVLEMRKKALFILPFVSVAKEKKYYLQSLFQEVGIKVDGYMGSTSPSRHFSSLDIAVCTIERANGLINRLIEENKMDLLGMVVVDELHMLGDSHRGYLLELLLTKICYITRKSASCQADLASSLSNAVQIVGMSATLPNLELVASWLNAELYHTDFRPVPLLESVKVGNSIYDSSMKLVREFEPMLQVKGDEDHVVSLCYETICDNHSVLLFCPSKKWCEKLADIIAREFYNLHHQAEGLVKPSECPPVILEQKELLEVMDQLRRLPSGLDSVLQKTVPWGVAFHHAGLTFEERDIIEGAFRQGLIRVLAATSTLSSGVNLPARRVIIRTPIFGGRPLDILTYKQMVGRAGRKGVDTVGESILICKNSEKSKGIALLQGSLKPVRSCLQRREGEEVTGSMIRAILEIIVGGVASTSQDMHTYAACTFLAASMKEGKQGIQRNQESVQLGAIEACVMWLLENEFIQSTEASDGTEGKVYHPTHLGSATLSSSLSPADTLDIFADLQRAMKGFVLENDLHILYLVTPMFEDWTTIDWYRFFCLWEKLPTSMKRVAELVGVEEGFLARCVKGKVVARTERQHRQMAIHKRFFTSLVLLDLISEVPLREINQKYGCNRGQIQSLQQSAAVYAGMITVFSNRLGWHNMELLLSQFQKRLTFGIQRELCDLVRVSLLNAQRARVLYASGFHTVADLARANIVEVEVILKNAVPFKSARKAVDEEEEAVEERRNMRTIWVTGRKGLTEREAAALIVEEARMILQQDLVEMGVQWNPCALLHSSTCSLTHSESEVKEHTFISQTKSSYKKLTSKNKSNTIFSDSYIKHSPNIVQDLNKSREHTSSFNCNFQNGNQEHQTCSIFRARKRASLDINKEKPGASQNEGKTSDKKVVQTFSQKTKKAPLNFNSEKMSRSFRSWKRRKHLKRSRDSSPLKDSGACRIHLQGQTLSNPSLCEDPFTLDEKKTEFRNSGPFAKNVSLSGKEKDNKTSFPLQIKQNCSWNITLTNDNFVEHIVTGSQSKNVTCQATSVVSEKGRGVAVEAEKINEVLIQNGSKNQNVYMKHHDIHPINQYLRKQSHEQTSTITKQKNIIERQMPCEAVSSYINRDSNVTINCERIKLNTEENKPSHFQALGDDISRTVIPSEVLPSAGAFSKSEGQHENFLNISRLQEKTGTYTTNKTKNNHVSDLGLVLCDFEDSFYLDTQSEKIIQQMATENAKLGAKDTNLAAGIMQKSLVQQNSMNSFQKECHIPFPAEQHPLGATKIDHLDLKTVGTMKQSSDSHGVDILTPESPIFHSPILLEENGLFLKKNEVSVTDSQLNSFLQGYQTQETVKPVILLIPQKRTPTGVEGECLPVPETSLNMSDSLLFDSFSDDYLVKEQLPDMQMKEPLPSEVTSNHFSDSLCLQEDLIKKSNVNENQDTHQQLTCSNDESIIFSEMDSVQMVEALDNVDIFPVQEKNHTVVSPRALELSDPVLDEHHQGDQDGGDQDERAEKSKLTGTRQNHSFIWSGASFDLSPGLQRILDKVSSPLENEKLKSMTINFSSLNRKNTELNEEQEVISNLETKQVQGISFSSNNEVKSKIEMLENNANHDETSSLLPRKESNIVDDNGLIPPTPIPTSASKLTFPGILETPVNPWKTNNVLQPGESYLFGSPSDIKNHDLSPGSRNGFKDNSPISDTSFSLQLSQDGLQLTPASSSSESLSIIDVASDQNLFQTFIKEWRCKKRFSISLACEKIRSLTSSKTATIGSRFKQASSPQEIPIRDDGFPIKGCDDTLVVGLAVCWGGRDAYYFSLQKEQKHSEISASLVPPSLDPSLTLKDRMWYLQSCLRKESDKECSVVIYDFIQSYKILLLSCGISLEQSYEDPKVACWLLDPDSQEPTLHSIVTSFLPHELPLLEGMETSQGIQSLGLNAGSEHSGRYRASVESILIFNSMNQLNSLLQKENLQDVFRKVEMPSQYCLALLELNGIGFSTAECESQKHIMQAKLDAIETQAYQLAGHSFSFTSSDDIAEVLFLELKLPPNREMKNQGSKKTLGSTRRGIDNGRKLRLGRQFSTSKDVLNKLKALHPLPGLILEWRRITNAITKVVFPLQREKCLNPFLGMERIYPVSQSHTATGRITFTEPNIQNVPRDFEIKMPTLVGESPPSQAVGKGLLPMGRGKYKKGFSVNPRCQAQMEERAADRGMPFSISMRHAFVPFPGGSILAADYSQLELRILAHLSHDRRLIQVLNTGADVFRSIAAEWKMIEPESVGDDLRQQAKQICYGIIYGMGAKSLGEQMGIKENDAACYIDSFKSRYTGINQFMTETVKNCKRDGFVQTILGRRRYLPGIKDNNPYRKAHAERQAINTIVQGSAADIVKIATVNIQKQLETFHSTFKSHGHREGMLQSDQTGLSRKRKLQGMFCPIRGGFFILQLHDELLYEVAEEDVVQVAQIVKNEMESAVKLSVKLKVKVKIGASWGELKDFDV
Observed: enzyme activity
Action: inhibitor
Tested at: 77 µM
Relative to: untreated
Structure (SMILES)	remaining activity
CCCn1c(=O)[nH]c(=O)c2nc[nH]c21	98.2%
O=C(O)Cc1ccc(-c2ccccc2)cc1	102%
C[C@]12C=CC(=O)C=C1CC[C@H]1[C@@H]3C[C@@H](O)[C@](O)(C(=O)CO)[C@@]3(C)C[C@H](O)[C@@]12F	86.6% and 97.1%
O=C1c2c(O)cccc2C([C@@H]2O[C@H](CO)[C@@H](O)[C@H](O)[C@H]2O)c2cc(CO)cc(O)c21 (some centres unmarked)	90.7%

Study 3
Cell line: mouse MPNST tumor cells
Technique: high-content nuclear imaging
Measured: cell number
Tested at: 10 µM
Time: 12 h
Notes: mean of 2 replicates
Relative to: plate mean
Direction: higher = more cells
SMILES	nuclei count [z-score]
N=C(N)NCCN1CCCCCCC1	0.918
COc1cc(C(=O)N2CCOCC2)cc(OC)c1OC	1.47
CCc1cc(C(C)=O)c(O)cc1OCCCCCC(C)(C)c1nn[nH]n1	0.0741
Oc1ccc(-c2nc(-c3ccc(F)cc3)c(-c3ccncc3)[nH]2)cc1	-1.75
CC(C)(Cc1ccccc1)NCC(O)c1ccc(O)c(NS(C)(=O)=O)c1 (centres unmarked)	2.3
N=C(N)SCc1ccc(B(O)O)cc1	-1.34
CN(C(=O)C(Cl)Cl)c1ccc(OC(=O)c2ccco2)cc1	0.0117

Study 4
Species: human
Sample: microsomes or S9
Tested at: 2 µM
Time: 0.5 h
Compound	remaining compound [%]
CCCCOC(=O)c1ccc(NC(=O)c2c(OCC)cc(=O)n3c2CCCC3)cc1	49.8
Cc1cn[nH]c1C1(C)CCCN(S(=O)(=O)c2cnn(C)c2)C1 (centres unmarked)	1.3
CC(C)N(C(=O)COc1nc(Cl)cc(Cl)n1)c1ccccc1	80.9
CC(C)OCCCN(C)C1CCN(S(=O)(=O)c2ccc3[nH]c(=O)ccc3c2)CC1	95.2
Cn1ncc(N2CC(O)CC2C2CCCCC2)c(Br)c1=O (centres unmarked)	82.9
N#Cc1nccnc1NCCc1nc2c(s1)CCCC2	0.965
CN(C(=O)c1ccc2cc[nH]c2c1)C1CCc2nn(C)c(=O)n2CC1 (centres unmarked)	> 100

Study 5
Organism: Sarcocystis neurona
Observed: parasite activity
Tested at: 10 µM
Time: 96 h
SMILES	activity class
C[C@H]1O[C@H](O[C@H]2[C@H](O)[C@@H](O)[C@@H](O[C@H]3[C@H](O)[C@@H](O)C(O)O[C@@H]3CO)O[C@@H]2CO)[C@H](O)[C@@H](O)[C@@H]1N[C@H]1C=C(CO)[C@@H](O)[C@H](O)[C@H]1O (some centres unmarked)	inactive
O=C1CN(/N=C/c2ccc(-c3ccc([N+](=O)[O-])cc3)o2)C(O)=N1	active
CCc1ccc(CCOc2ccc(CC3SC(=O)NC3=O)cc2)nc1 (centres unmarked)	inactive
CC(C)C(=O)Nc1ccc([N+](=O)[O-])c(C(F)(F)F)c1	inactive

Study 6
Target: Calcium/calmodulin-dependent protein kinase type II subunit alpha (CAMK2A, Homo sapiens, UniProt Q9UQM7)
UniProt Q9UQM7, sequence (whole entry, looked up): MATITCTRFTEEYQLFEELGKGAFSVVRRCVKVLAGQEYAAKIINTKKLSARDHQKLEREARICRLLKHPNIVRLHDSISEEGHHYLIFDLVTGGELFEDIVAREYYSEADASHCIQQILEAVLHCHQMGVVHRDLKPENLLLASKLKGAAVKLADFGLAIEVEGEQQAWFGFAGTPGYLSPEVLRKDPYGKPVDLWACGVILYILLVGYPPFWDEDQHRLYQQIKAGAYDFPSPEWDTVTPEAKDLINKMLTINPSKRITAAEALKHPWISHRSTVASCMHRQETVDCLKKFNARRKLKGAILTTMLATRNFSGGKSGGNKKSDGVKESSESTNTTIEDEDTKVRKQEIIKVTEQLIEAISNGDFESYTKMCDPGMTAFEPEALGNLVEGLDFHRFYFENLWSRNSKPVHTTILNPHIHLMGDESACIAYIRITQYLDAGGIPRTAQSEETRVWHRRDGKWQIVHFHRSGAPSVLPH
Observed: enzyme activity
Action: inhibitor
Tested at: 10 µM
Structure (SMILES)	inhibition [%]
O=C1N[C@@H]2[C@@H](O)[C@@H](O)[C@H](O)[C@@H](CO)N2C1=O	-1
CC1(C)CC[C@]2(C(=O)O[C@@H]3O[C@H](CO)[C@@H](O)[C@H](O)[C@H]3O)CC[C@]3(C)C(=CC[C@@H]4[C@@]5(C)CC[C@H](O[C@@H]6O[C@H](C(=O)O)[C@@H](O)[C@H](O)[C@H]6O)C(C)(C)[C@@H]5CC[C@]43C)[C@@H]2C1	-8
O=C1CCCCC1=O	-65
COC(=O)c1ccc(O)c(OC)c1	31
CC[C@H]1[C@@H](O)[C@@H]2[C@H](CC[C@]3(C)[C@@H]([C@H](C)CCC(=O)O)CC[C@@H]23)[C@@]2(C)CC[C@@H](O)C[C@@H]12	-4
CC(C)=CCc1cc([C@@H]2CC(=O)c3ccc(O)c(CC=C(C)C)c3O2)ccc1O	-12

For quick reference, copied from above (study 4):
Compound	remaining compound [%]
Cn1ncc(N2CC(O)CC2C2CCCCC2)c(Br)c1=O (centres unmarked)	82.9
N#Cc1nccnc1NCCc1nc2c(s1)CCCC2	0.965
CC(C)OCCCN(C)C1CCN(S(=O)(=O)c2ccc3[nH]c(=O)ccc3c2)CC1	95.2
CCCCOC(=O)c1ccc(NC(=O)c2c(OCC)cc(=O)n3c2CCCC3)cc1	49.8
CC(C)N(C(=O)COc1nc(Cl)cc(Cl)n1)c1ccccc1	80.9
Cc1cn[nH]c1C1(C)CCCN(S(=O)(=O)c2cnn(C)c2)C1 (centres unmarked)	1.3
